# Results pooled from the literature.
# Every numbered part comes from another study and shows a few of its results, in no order.
# Sequence of UniProt Q9C0B0 (30-357, looked up): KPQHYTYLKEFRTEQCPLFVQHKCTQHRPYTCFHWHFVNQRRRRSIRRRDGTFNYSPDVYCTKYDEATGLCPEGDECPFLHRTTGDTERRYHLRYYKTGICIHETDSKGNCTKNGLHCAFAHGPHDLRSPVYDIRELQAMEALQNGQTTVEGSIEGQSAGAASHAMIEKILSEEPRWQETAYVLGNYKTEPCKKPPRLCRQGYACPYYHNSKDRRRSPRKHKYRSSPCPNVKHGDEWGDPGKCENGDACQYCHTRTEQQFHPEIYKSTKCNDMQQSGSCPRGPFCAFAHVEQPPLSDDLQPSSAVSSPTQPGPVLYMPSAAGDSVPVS

# Study 1
# Target: Fragile X messenger ribonucleoprotein 1, C-terminal low-complexity region (Fmr1, Mus musculus, UniProt P35922)
# Technique: RNA Bind-n-Seq
# Form: RNA
# Medium: in vitro
# Concentration: 200 nM
# Notes: whole 134-nt RNA, ends assumed
# Together with: 150 mM LiCl
# Baseline: input library
# Direction: higher = stronger binding
# Each molecule: 7-deaza-guanosine replaces G
# Shared flanks, not repeated: GGGAGUUCUACAGUCCGACGAUC … UGGAAUUCUCGGGUGUCAAGG
Strand,log2 enrichment
CUGUGCUACACAUCGUAUGUACCGAAUCGGGGAAAAAAGGGGAAAAAAGGGAAAAAAGGGGAAAGUAUUAUGUUACGCCGUUCGGAUCUG,1.02
UCCUGUGCUACACAUCGUAUGUACCGAAUCGGGCCCCCCGGGCCCCCCGGGGCCCCCCGGAAAGUAUUAUGUUACGCCGUUCGGAUCUGC,-1.98
CAAGUCCUGUGCUACACAUCGUAUGUACCGAAUCGGGUUUUGGUUUUGGUUUUGGGAAAGUAUUAUGUUACGCCGUUCGGAUCUGCACUU,-1.84
UCAAGUCCUGUGCUACACAUCGUAUGUACCGAAUCGGUUUUUGGUUUUUGGUGGAAAGUAUUAUGUUACGCCGUUCGGAUCUGCACUUCC,-1.31
CCUGUGCUACACAUCGUAUGUACCGAAUCGGGUUUUUUUGGUUUUUUUGGGUUUUUUUGGGAAAGUAUUAUGUUACGCCGUUCGGAUCUG,-1.29
AGUCCUGUGCUACACAUCGUAUGUACCGAAUCGGUUUUUGGGUUUUUGGGUUUUUGGGAAAGUAUUAUGUUACGCCGUUCGGAUCUGCAC,-1.18
GUCCUGUGCUACACAUCGUAUGUACCGAAUCGGGGAAAAAGGGGAGGGGUUUUUGGGGAAAGUAUUAUGUUACGCCGUUCGGAUCUGCAC,0.201
UCCUGUGCUACACAUCGUAUGUACCGAAUCGGGGCCCCCGGGGCCCCCGGCCCCCGGGGAAAGUAUUAUGUUACGCCGUUCGGAUCUGCA,-2.24
AAGUCCUGUGCUACACAUCGUAUGUACCGAAUCGGUUUUGGUUUUGGGGUUUUGGGGAAAGUAUUAUGUUACGCCGUUCGGAUCUGCACU,-0.965
UGAGUAGAUCUAGAAAUGACAGUAUGACUUUGUUUCUAACAGCUCCAAAAUGGAUCAAAAUGUUUGUUUUGGAUGAAGCAGAUGAAAUGU,-4.36
CAAGUCCUGUGCUACACAUCGUAUGUACCGAAUCGGAAAAAAAGGUGGAAAAAGGAAAGUAUUAUGUUACGCCGUUCGGAUCUGCACUUC,-1.08

# Study 2
# Target: Histone acetyltransferase KAT6A, both winged helices, GST fusion (KAT6A, Homo sapiens, UniProt Q92794, residues 1-181)
# Technique: protein binding microarray
# Form: double-stranded DNA, one strand shown
# Medium: in vitro
# Concentration: not given
# Notes: 8-mer, flanks averaged, mean of 2 arrays, mostly near background
# Baseline: not given
# Direction: higher = stronger binding
# Target sequence (chain): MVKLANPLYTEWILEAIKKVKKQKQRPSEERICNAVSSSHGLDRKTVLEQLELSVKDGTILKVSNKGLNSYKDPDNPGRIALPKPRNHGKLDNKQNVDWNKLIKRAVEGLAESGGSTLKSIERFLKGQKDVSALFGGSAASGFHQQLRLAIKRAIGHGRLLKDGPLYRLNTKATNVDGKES
Strand,E-score
AATTTCGC,-0.103
AGAGCTGA,-0.246
CGAGGAGA,-0.153
GGGAAGGA,-0.101
CGAATGGC,0.00331
GAAAACGA,-0.0154
GGCGACAA,0.0968
GCCGGCCC,0.307
CACGTATG,-0.00138
GACGTCTA,-0.0697
CCGGACCA,0.134
CGAGCGAA,-0.0286
ACCCTCTA,-0.251
ACGTTGGC,-0.0348
AGGCCTTG,-0.198
ATCCTCTA,-0.249
AAGGAAGC,-0.0346
ATCGACAC,-0.0412
TTGCTAAA,-0.105
ATGACGTA,-0.077
CACGAAAA,-0.0732
ACGGATCT,0.0732
GGTTGCCA,0.00592

# Study 3
# Target: Sal-like protein 4, full length isoform A (SALL4, Homo sapiens, UniProt Q9UJQ4, residues 1-1053)
# Sequence of UniProt Q9UJQ4 (whole entry, looked up): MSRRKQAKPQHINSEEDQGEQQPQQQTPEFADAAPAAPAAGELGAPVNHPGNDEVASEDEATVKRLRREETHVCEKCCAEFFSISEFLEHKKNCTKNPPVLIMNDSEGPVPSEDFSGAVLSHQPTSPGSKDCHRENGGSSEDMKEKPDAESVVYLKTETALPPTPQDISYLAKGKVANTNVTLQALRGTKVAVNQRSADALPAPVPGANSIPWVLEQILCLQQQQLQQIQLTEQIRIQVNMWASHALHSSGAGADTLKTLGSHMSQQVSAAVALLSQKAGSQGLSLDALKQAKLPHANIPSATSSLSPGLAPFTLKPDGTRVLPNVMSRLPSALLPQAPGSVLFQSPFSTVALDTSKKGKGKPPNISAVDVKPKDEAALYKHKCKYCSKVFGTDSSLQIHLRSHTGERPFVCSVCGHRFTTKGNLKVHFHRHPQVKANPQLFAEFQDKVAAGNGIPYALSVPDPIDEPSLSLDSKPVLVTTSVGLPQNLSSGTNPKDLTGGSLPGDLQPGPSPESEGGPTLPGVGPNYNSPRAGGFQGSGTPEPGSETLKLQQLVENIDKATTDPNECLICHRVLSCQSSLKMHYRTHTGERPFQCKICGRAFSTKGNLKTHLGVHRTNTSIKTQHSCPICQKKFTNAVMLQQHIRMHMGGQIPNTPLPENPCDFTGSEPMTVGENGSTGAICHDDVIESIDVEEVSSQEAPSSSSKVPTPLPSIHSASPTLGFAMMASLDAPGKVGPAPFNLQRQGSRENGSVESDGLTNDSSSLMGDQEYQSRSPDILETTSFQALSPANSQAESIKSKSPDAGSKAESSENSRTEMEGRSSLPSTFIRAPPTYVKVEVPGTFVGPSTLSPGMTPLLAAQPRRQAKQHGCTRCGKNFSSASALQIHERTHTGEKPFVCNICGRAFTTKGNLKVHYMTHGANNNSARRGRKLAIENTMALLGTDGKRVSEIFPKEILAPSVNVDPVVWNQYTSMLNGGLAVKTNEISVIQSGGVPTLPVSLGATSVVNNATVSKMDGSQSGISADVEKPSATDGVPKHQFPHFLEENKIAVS
# Technique: universal PBM
# Form: double-stranded DNA, one strand shown
# Medium: in vitro
# Concentration: 600 nM
# Notes: 8-mer, flanks averaged, mean of replicates
# Direction: higher = stronger binding
Strand,E-score
ATTCGGCC,-0.225
ATCACCGA,0.128
AACACCGT,-0.0797
AATCAGCC,-0.187
CTCTAAAC,0.0589
CGACTTTC,-0.0451
AACAATTG,0.202
TACTATGA,0.271
CTTAAGGC,-0.153
ATAATTGA,0.362
ACTTCCCA,-0.0127
AAGCCGGA,-0.19
CGAGACAA,-0.142
CAAATGAC,0.0448
GCCATGTA,0.0453
ACGTCAGG,-0.123
GACTGGAA,-0.0817
ACGATTTC,0.202
AGTGAACC,-0.136
CCGGCTAA,-0.153
ATTCCGGC,-0.198
CGTTGGTC,-0.177
CGTCGCTC,-0.22
CAGTTAGA,-0.0489
CTTATCTC,0.214

# Study 4
# Target: PABPC1L2, full length, GST fusion (mouse, UniProt A0ABA7IW68)
# Technique: RNAcompete
# Form: RNA
# Medium: in vitro
# Concentration: 20 nM
# Notes: 7-mer, probes averaged, single round
# Baseline: mean of 7-mers
# Direction: higher = stronger binding
# Residues (chain): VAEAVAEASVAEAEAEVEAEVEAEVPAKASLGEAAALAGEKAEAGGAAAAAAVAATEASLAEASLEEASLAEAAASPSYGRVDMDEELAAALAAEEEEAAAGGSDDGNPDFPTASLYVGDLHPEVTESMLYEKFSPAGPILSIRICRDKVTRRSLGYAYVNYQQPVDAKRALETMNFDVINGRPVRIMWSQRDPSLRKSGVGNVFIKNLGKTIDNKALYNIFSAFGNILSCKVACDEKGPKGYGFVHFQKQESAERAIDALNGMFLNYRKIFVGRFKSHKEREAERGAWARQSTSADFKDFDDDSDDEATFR
Strand,7-mer Z-score
CACAACG,-0.18
ACCUCUA,-0.195
GAUAUGA,-0.0573
ACAAUAA,1.16
GGAACGA,0.227
UUACCGG,-0.237
AAUCGCC,-0.304
UAACCGC,-0.354
AGAUUAA,0.138
AUCCUAG,-0.188
UGUCAGC,-0.238
GCCCCUG,-0.338
GCCACGG,-0.0554
CGUUAAG,-0.188
UAGUACG,-0.162
ACUCGUG,-0.231
ACCACGG,0.182
CAAUCAU,-0.0899
AUACGCA,-0.103
AUAACUG,-0.17
ACCAGUU,-0.266
UGUCUAU,-0.324

# Study 5
# Target: RNA binding protein fox-1 homolog 2, RRM domain, GST-SBP tag (RBFOX2, Homo sapiens, UniProt O43251-10, residues 100-194)
# Technique: RNA Bind-n-Seq
# Form: RNA
# Medium: in vitro
# Concentration: 365 nM
# Notes: natural RNA segment, single round, ends assumed
# Baseline: no-protein control
# Direction: higher = stronger binding
# Shared flanks, not repeated: GGGAGUUCUACAGUCCGACGAUC … UGGAAUUCUCGGGUGCCAA
# Construct (chain): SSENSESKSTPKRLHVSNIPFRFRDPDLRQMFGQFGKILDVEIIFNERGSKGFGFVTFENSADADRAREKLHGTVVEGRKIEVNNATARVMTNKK
Strand,RBNS enrichment (R)
AUUACAUAGCAUACCUGUAUUUCAGUUAAAAACCAGACCCUAUGGUGUUGGGUAGACACUGACAGUUGAGAGGGUCACCAGGGUGCCACUCUAGUGUGAAGUCCUCUUCU,0.326
UAUUCUCAGCACGGGUGUAUGGGGACCUCAUUACCUAUUUUUUUCAUCAUUUACCCUAGGUAAGAACUUUGAUCACUGCUUACUAGGUAAAGAAUGUUUGUACUGUUCCA,0.917
UGCUGCAGAGCUGUGCCUCGCUGUGGAAAGCCCCAGCCCCACACAGAGAGCAAACAGUGAGAUAACAGGAGCUGUCUGUCGCAAAGCUUGCUUUCCACUGACACUCAGUU,0.19
AAGGUGGUUCGCUUUGAGGUGGUCUGAAGCCAAGGCCUCGCGGAGCUUCUUUGUGUGUCACCUUGCUUCCACGUUUCAGUUCUUGUUUUGUUUCUACUGCUUUAGUUUUU,0.901
UAGAUCUGUGCUCUGGAGGUGGUCUGCGUGAUUAGUGUUAGUGUAUGGUUUGGUGGUCUUUAAUGUUUUGAAAAACGGAAGUGAUUAGAAGUUAAGUUACUGUUCAAAGU,2.2
AGAUGAUCUCUAAUGACCAAUGGGGCUUCCUUUCUAUAGGGAGGAUACCAGCAGGCCCUUAAGCCUUCCAGGACACUAAGGUCGUGGGAGCGGGACUGCAACAAGCAAUG,0.316
GACAUUUUGAGGUCUGCUUAGCUAUGGCCCCCCUUUCCCAGAUGACCCCUUUCAUGGAAACGGUGUCUGGGGCAGAUAAACAUUGGGUACCUUCACUGUUUUGAGGGGGG,0.194
UAUAACCACGACUCUGGUGGGGAAAACCGUUUUUUAAAGGACACACACACACACAGCGAUGCAUCUCUCUCUAAAGCUCAGCCACGGCUGCGGCAAGGUCCCAGCGGUCG,0.865
CAGUUUUAUGCUCUCGGAAGGCUCAGCAGUGAUUGCUGCCGAGUGGGAAGUAGCUUCUCCCAGCUGUUCCUCACCUCACCAGAUAUUUUCCCAAAGCCGAAACAAGAAAA,0.392
GAAGUAUGGGUUCUCUCAGAGGAAAGGUUAUGAAAUUCUGUUGUGUGCAUAGUAAGACUGCCUGGCUAAAUUAGGCCUCACUGGCGAUAGAACAGACUUACUGAAGUUUA,0.874
GAGCCUCUUUAGUCUUCCCUGAAGCUGGCUUUCUAUGGUCAAGCUAUAAUUCUUUGGUGAAUAGGUAUGCCUAGGAACAACUGGUGGUUAGUCUGUGUCCUGUGUGGAAC,0.43
GAAUGAAAUUGUAUUUGUUAAAAUACACACAUUGGAGGACAAGAGCAGAUGACUACUUUUCGAAGUAAUGCUGCUCCUUCCUAAAAGUCUGUUUUCAAUCCUGGUAAUAU,0.294

# Other studies, line by line
Strand,target,assay,system,setting,how to read,quantity,value
GGGAGUUCUACAGUCCGACGAUCGUGUUGGUACAGAGUGCUCUGUACCAGUGCUCAUCAUCCCUUCUUCAUACCAACGGUCCCCCGUUACCGGAAUUUAAUAUUUUUAAAAGUUUUACAUUGCUGUAUAUUCAAAGAUUUGUUCAACAGAGGAUUGAGCAUCA,"RING finger protein unkempt homolog, zinc fingers 1-6, SBP tag (UNK, Homo sapiens, UniProt Q9C0B0, residues 30-357)",RNA Bind-n-Seq,"RNA, in vitro","100 nM, RNA with constant flanks, ends assumed","baseline: input RNA pool, higher = stronger binding",bound/input enrichment,0.245 ratio

# For quick reference, copied from above (study 4):
Strand,7-mer Z-score
AAUCGCC,-0.304
AUCCUAG,-0.188
GGAACGA,0.227
ACUCGUG,-0.231
CAAUCAU,-0.0899
AUACGCA,-0.103
ACCAGUU,-0.266
GCCCCUG,-0.338
GAUAUGA,-0.0573
ACCACGG,0.182
UGUCUAU,-0.324
AGAUUAA,0.138
UGUCAGC,-0.238
ACCUCUA,-0.195
